# Assay results pooled from the literature.
# Compare with care: the assays were run in different laboratories. Several values in a cell are separate wells, animals, samples, runs or records. ± marks the error that the study gave.
Molecule,tested on,assay,test system,setting,scale,measurement,result
Triton X-100,Escherichia coli,checkerboard,tetracycline-resistant (pBR322),"20 µM, with: tetracycline",,tetracycline MIC,450 ± 100 µM
CTCATACTCT,Salmonella enterica Typhimurium,"RNA-seq, refers to: SL1344_3670 mRNA","peptide, SL1344","5 µM, 15 min",baseline: water control,log2 fold change,-2.25
benzalkonium chloride,Enterococcus faecalis,,OG1RF,,,MIC,32 µM
milbemycin oxime,Saccharomyces cerevisiae,cell growth,"Pdr5 deleted, Cdr1 overexpressed","2^-2.966 µg/mL, with: fluconazole 1 µg/mL",,OD600,0.047 and 0.032 and 0.044
colistin,Klebsiella pneumoniae,broth microdilution,clinical isolate RKI-No_164/16,,,MIC,8 µg/mL
gentamicin,Escherichia coli,time-kill,,"1 x MIC, 60 min",,viable count,1.3 log CFU/mL
GSGAGIATEV,human MAGI1-3/6 PDZ construct (MBP fusion),automated holdup,"peptide, crude extract","concentration not given, uncorrected, unit not given","baseline: biotin control resin, higher = stronger binding",binding intensity,0.288
CTCATACTGA,Salmonella enterica Typhimurium,"RNA-seq, refers to: pagN","peptide, SL1344","5 µM, 15 min",baseline: water,log2 fold change,3.12
"GCCATGCTTT (PNA, CPP-conjugated)",Salmonella enterica Typhimurium,"RT-qPCR, refers to: mrcB","peptide, SL1344","concentration not given, 30 min, sublethal dose",baseline: mock,mRNA level reduction,37%
CTCTAACTCT,Salmonella enterica Typhimurium,broth microdilution,"peptide, SL1344","range over 0.3-10 µM, 24 h, 37 °C, Mueller-Hinton broth",,MIC,> 10 µM
colistin,Escherichia coli,checkerboard,tetracycline-resistant (pBR322),"0.0625 µM, with: tetracycline",,tetracycline MIC,56.2 µM
colistin,Acinetobacter baumannii,,clinical strain 2E7,,,MIC,1 µg/mL
CAGATACTCT,Salmonella enterica Typhimurium,"RNA-seq, refers to: udg mRNA","peptide, SL1344","5 µM, 15 min",baseline: water control,log2 fold change,1.85
polymyxin B,Escherichia coli,"XTT, preformed biofilm",ATCC BAA-2452,"1 × MIC, 24 h",,biofilm mass reduction,44%
maraviroc,HIV-1 ADA,"viral replication, qPCR","HIV-infected mice, brain","ip, 120 mg/kg twice daily, 3 weeks post-infection, normalized to CD45+ cells",baseline: untreated HIV-infected mice,HIV-1 tat decrease,81.7 fold
CTCATACAGT,Salmonella enterica Typhimurium,broth microdilution,"peptide, SL1344","range over 0.3-10 µM, 24 h, 37 °C, Mueller-Hinton broth",,MIC,10 µM
LVHYTHCGSLGV,Epstein-Barr virus,BamHI-W qPCR,"peptide, B-NDG humanized mouse, EBV-infected, peripheral blood","20 mg/kg, day 0",,EBV DNA copy number,0 copies
CTGTTACTCT,Salmonella enterica Typhimurium,"RNA-seq, refers to: pagN","peptide, SL1344","5 µM, 15 min",baseline: water,log2 fold change,1.56
GWTLNSAGYLLGPHAVGNHRSFSDKNGLTS,Aplysia californica,"receptor activation, agonist, IP1 accumulation","peptide, CHO-K1 cells transfected with Gα16",up to 100 µM,,activity,inactive
DAPT,Enterococcus faecalis,,ATCC 29212,,,MIC,6.2 µg/mL
Polymyxin B,Staphylococcus aureus,DiSC3(5) fluorescence,,"concentration not given, 39 min",higher = more depolarisation,membrane depolarisation,619 a.u. and 590 a.u. and 858 a.u.
Polymyxin B,Escherichia coli,,ATCC 25922,"31.2 µg per disc, 24 h, 37 °C",,inhibition zone diameter,14 mm
TCACTATCTC,Salmonella enterica Typhimurium,"RNA-seq, refers to: pagN","peptide, SL1344","5 µM, 15 min",baseline: water,log2 fold change,1.94
QSARYRDTEL,human SCRIB PDZ3-4 tandem (MBP fusion),automated holdup,"peptide, purified PDZ protein","concentration not given, unit not given","baseline: biotin control resin, higher = stronger binding",binding intensity,0.686

# Excerpt of the above:
Molecule,tested on,assay,test system,setting,scale,measurement,result
milbemycin oxime,Saccharomyces cerevisiae,cell growth,"Pdr5 deleted, Cdr1 overexpressed","2^-2.966 µg/mL, with: fluconazole 1 µg/mL",,OD600,0.047 and 0.032 and 0.044
colistin,Klebsiella pneumoniae,broth microdilution,clinical isolate RKI-No_164/16,,,MIC,8 µg/mL
